Published values of several laboratories.
Each numbered part is a random draw from the data of one study; scales do not carry over between parts. Substitutions count along the parent as printed.

Series 1
Target: CCND3, cyclin fold, Cln2 fusion (human)
Method: yeast growth competition, sequencing
Sample: yeast
Setting: weak parent motif
Reference: not given
Reading: higher = stronger binding
Starting sequence: PPP1R3F docking peptide (human); VAPRRVLFADEAL; partner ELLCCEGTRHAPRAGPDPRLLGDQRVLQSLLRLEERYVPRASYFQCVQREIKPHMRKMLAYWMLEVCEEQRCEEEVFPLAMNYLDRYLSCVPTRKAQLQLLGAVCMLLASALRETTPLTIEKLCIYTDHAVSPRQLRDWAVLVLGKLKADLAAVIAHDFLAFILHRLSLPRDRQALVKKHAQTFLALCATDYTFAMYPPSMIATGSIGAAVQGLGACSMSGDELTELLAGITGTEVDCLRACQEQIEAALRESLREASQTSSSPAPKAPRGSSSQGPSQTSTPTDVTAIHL
Under “normalised enrichment score”, `VAPRRVLFADAAL [E11A]` is recorded as 0.164.
For `AAPRRVLFADEAL [V1A]`, “normalised enrichment score” read 0.0928.
`VAPRKVLFADEAL [R5K]`: “normalised enrichment score” -0.148.
Under “normalised enrichment score”, `VAPARVLFADEAL [R4A]` is recorded as 0.134.
For `VAARRVLFADEAL [P3A]`, “normalised enrichment score” read 0.184.
`VAPRAVLFADEAL [R5A]`: “normalised enrichment score” 0.121.

Series 2
Target: RING finger protein unkempt homolog, zinc fingers 1-6, SBP tag (UNK, Homo sapiens, UniProt Q9C0B0, residues 30-357)
Sequence of UniProt Q9C0B0 (30-357, looked up): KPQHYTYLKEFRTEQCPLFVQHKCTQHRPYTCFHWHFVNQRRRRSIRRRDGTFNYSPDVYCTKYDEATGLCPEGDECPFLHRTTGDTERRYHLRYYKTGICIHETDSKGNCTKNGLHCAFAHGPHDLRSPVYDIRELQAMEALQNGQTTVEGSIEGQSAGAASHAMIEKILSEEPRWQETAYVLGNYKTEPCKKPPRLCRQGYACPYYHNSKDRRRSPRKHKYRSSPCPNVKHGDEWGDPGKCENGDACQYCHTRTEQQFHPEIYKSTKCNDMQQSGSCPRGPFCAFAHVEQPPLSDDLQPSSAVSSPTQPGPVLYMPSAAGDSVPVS
Method: RNA Bind-n-Seq
Form: RNA
Sample: in vitro
Concentration: 100 nM
Setting: RNA with constant flanks, vertebrate orthologous sites, ends assumed
Reference: input RNA pool
Reading: higher = stronger binding
The bound/input enrichment of `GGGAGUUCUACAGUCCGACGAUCCCCACCACUCCUGGGUGCAUGACUGCGGGGGAAGCAUCCACCAGUGCUGCGAGGGGUCUGUGGUAUUGUUUUGCUGCCUCAGUCCCCAGAGCCUUCGAGCAGAAGUGGCAAUACACUGUUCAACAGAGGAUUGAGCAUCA` is reported as 0.444 ratio.
The bound/input enrichment of `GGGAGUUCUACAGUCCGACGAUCCUCCACCACCCCUGGGUGCCUGACUCCAGUGAAGCACUCACCAGUGCUGCAAGGAGUCCAGAGUAUUUUUUUGCUGCUUCAGUCCCCAAUGCCUUCCAGCAGAAGUGGCAGUAGACUGUUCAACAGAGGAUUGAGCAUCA` is reported as 0.308 ratio.
For `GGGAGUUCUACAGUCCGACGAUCGUGACUUUGAACGUCCGCUCAUCCUAGGUGUGGAGACUACUGAGUCUCUGGGUGUGAAGGUUUGUUUUGCUUCGCCGGAGCCGAGGCCUCUGCCGCAAUCAUGUUCCGCCAGAUCUUCACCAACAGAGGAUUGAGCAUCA`, the bound/input enrichment was 0.226 ratio.
With `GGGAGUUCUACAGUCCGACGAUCCCAGUCUUCCACAUGGGGUCAGCCUCAAAUCUAUAGGAUUUUUGACAAAUGUAUUAUAUCUAGUUGUGUUGAAUUUAGUAUUUUUUUAUUAGCCUGUAAAUAAAGAUGGCCUCUCCUACACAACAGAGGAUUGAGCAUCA` the bound/input enrichment was 2.16 ratio.
`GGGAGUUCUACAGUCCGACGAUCAUGUAGUUUGUUUUUAAUUUCAAGCAAAAUCUUAUUGUACUUGAACGUGCCCUGUUUUGUUAGCACACCUAGACUUGCUGUAACUGUACUCAUGUCCCAGUAUGUACGUUCUUUCUAUGACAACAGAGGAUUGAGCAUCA` gave a bound/input enrichment of 0.824 ratio.
For `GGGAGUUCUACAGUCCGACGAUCAGCAACUCAAGGAUUCAGAACUGGUUUUACAAAUGUCCCAAGCAGAUAUGGAACCAACGCUCGUGGUCAACCCCGACCGUAAUAAACACCAUUAUUUAUUAUACUUAAGGGUAUUGACUUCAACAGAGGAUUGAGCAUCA`, the bound/input enrichment was 0.208 ratio.
With `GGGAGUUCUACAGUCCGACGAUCGUUGUGACCCAUUUAACAUACACAAAAAACUAGCAAAAAAGAAUUUGCAUGUAAUUGACUUAGAUGAUGCCACUUUUCUGAGUGCGAAAUUCGGAAGACAGCUUGUACCUGGUUGGAAGCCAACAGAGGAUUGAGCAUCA` the bound/input enrichment was 0.985 ratio.
For `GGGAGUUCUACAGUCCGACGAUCCCAGUCUUCCACUUAGGGUCGGCCUCAAAUCUAUAGGAUUUAUGACAAAUGUAUUAGAUCUAGUUGAGUUUCAUAUUUUUUUAUUAGCCUGUAAAUAAAGAUGGCAUUACAUUAAAAUGGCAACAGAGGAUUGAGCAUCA`, the bound/input enrichment was 0.85 ratio.

Series 3
Target: Sal-like protein 4, full length isoform B (SALL4, Homo sapiens, UniProt Q9UJQ4-2, residues 1-616)
Method: universal PBM
Form: double-stranded DNA, one strand shown
Sample: in vitro
Concentration: not given
Setting: 8-mer, flanks averaged, mean of replicates
Reading: higher = stronger binding
For `ACCATTGG`, the E-score was -0.132.
`AGGACACC` has an E-score of -0.237.
`GTGATAAA` gave an E-score of 0.233.
The E-score of `CAATGTCG` is reported as 0.00829.
For `CGCCACTC`, the E-score was -0.162.
For `CATTATCG`, the E-score was 0.0992.
`CTCGGCGC` gave an E-score of -0.257.
`CCTCACCG` gave an E-score of -0.281.
`CACACGAG` has an E-score of -0.214.
The E-score of `ACTTTGAC` is reported as 0.0226.
For `TCGTATAA`, the E-score was 0.291.
For `AGTCCAAA`, the E-score was -0.0951.
For `CCCTCTCA`, the E-score was -0.195.
With `CGCAGCTA` the E-score was -0.307.
`CAAATTTC` gave an E-score of 0.222.
For `ACACGGCG`, the E-score was -0.228.

Series 4
Substance: PhoQ, residues 284 288 289 292 302 303 GANMMA
Method: Sort-seq
Refers to: YFP reporter
Sample: E. coli
Setting: PhoQ-PhoP variant library
Added: 10 µM Mg2+
Reference: high Mg2+ state
Reading: higher = stronger signaling
PhoP, residues 12 14 15 18 19 QQAYL (Escherichia coli, UniProt P23836) — fold induction: 11.1.
The fold induction was 8.49 (PhoP, residues 12 14 15 18 19 LFHKL (Escherichia coli, UniProt P23836)).
It gave 1.57 for fold induction (PhoP, residues 12 14 15 18 19 GMGLL (Escherichia coli, UniProt P23836)).

Some of these lines once more (series 3):
For `CATTATCG`, the E-score was 0.0992.
For `TCGTATAA`, the E-score was 0.291.
With `CGCAGCTA` the E-score was -0.307.
